Measurements from different studies.
Lines come from different studies, so protocols differ.
Sequence of UniProt P29597 (whole entry, looked up): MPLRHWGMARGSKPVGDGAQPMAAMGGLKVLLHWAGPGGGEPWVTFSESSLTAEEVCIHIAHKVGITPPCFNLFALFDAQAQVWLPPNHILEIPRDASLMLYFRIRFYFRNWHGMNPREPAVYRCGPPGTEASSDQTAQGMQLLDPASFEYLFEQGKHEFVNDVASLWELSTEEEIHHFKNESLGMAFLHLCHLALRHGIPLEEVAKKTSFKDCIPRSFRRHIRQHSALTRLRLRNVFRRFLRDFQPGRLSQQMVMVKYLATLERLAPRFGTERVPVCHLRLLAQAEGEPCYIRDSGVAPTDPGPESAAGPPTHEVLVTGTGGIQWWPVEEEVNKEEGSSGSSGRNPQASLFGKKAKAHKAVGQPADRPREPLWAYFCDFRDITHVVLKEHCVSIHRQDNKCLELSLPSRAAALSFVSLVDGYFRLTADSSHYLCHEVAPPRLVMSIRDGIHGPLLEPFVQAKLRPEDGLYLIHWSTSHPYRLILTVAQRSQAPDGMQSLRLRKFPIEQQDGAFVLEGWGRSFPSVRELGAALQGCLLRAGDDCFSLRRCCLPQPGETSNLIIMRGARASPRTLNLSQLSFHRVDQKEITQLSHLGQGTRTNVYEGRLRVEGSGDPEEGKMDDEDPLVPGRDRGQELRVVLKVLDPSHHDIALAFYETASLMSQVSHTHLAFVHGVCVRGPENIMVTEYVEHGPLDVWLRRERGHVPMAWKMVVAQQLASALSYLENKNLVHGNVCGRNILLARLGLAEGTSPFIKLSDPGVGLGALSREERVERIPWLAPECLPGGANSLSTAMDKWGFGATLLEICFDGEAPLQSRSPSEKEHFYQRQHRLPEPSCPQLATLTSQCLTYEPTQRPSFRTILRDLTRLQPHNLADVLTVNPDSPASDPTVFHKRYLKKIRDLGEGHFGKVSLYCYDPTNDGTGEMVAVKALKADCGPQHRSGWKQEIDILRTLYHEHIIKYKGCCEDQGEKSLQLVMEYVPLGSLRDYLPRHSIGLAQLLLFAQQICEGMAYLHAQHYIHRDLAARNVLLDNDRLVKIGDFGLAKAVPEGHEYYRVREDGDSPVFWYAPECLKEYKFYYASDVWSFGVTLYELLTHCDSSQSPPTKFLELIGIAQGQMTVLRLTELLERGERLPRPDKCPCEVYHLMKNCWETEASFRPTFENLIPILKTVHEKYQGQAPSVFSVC
Sequence of UniProt Q99683 (whole entry, looked up): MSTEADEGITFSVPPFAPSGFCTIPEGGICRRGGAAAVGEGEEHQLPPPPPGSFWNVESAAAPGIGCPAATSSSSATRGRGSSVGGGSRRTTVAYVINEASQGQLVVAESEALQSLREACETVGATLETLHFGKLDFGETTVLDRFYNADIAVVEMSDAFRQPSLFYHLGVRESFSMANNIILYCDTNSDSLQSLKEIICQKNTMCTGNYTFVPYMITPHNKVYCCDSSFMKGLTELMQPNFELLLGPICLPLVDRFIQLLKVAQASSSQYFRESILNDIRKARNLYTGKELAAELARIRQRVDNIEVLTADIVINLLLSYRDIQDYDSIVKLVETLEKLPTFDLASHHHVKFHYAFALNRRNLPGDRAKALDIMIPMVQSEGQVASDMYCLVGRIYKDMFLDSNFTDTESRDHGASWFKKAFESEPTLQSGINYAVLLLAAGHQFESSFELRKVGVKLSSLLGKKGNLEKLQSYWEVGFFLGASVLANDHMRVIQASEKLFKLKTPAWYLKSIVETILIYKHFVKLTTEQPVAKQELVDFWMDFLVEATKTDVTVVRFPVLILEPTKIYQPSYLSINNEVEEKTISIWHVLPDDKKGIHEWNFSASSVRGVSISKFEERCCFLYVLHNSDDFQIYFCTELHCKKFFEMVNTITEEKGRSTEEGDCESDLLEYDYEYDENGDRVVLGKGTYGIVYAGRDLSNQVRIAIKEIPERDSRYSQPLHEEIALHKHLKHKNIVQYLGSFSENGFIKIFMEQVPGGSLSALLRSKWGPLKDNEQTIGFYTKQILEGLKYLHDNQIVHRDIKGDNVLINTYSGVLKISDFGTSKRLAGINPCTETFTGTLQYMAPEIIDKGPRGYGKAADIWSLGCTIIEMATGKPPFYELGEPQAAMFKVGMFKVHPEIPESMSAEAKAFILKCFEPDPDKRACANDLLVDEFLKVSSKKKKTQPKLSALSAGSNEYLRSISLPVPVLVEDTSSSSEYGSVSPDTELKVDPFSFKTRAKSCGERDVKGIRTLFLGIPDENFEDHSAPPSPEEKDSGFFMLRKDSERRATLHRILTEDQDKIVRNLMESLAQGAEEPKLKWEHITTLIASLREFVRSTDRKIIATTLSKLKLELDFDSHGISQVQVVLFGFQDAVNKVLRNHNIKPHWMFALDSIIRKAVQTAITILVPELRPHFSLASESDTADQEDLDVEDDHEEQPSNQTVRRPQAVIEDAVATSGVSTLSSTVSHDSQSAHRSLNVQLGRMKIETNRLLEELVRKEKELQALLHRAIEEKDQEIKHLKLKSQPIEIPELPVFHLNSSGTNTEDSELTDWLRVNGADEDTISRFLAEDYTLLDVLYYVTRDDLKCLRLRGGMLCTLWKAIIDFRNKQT
Sequence of UniProt Q8N4C8 (whole entry, looked up): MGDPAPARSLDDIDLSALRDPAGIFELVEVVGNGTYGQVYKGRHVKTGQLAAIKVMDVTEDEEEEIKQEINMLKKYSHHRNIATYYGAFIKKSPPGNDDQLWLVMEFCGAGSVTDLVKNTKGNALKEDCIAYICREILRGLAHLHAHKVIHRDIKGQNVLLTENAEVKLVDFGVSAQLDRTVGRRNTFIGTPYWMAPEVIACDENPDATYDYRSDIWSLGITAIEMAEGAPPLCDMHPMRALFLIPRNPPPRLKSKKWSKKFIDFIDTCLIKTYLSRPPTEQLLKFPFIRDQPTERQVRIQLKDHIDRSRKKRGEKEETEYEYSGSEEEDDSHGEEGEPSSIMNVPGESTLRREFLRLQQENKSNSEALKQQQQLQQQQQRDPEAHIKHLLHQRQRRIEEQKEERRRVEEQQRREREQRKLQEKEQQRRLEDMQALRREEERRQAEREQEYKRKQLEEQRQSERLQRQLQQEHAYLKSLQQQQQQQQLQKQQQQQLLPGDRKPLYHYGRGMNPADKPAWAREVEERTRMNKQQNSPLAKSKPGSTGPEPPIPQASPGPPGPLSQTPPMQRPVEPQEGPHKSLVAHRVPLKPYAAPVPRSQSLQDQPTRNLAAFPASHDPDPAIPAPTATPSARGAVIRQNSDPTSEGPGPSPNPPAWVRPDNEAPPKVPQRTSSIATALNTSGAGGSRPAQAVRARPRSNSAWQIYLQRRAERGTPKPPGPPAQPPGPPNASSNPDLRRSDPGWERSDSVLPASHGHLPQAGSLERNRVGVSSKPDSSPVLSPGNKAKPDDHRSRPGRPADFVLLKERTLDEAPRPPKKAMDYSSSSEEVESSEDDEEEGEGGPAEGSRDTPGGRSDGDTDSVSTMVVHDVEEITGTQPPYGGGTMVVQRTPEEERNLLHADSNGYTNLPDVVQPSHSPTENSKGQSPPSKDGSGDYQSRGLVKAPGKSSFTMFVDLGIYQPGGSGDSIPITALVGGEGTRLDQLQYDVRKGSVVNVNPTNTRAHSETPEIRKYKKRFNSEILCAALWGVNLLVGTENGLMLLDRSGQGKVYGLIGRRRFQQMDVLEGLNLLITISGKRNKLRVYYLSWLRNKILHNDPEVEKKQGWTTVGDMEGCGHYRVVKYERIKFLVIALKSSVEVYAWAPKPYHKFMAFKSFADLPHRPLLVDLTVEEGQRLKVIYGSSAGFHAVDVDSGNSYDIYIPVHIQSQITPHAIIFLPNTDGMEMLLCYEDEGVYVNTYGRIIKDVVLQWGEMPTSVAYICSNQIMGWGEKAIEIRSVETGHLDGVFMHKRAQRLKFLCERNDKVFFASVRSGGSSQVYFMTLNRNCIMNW
Sequence of UniProt P36896 (whole entry, looked up): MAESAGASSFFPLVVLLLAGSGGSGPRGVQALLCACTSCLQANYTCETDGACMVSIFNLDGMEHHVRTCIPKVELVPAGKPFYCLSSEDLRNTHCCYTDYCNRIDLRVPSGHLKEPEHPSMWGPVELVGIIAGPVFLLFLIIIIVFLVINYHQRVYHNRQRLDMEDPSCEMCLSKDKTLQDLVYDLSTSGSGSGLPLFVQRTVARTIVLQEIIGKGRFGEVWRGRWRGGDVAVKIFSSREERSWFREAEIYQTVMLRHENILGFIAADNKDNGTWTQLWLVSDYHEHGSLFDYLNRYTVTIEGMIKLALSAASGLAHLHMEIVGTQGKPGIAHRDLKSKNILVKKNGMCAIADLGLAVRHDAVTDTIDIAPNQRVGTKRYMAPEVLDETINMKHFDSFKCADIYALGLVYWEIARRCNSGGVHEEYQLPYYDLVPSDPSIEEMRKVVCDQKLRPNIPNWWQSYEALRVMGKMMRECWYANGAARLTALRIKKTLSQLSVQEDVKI
Sequence of UniProt Q8N5S9 (whole entry, looked up): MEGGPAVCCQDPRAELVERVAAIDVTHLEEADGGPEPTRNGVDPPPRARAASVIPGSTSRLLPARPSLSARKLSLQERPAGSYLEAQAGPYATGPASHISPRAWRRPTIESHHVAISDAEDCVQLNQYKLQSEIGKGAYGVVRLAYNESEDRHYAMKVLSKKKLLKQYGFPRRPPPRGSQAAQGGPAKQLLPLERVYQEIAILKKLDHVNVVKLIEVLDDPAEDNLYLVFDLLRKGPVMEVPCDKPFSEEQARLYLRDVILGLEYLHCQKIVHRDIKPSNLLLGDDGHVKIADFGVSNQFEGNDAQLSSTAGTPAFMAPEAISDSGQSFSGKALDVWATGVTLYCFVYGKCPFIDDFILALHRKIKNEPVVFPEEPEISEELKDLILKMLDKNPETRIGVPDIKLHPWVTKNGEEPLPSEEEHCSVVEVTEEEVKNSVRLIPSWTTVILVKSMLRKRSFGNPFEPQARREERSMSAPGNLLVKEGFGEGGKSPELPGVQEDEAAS

`Cc1[nH]c(C)c(-c2ccc(OCc3ccc(F)cc3)cc2)c(=O)c1Br` has an IC50 of over 10 µM (HEK293; cell growth or viability).
`CCC(C)n1ncn(-c2ccc(N3CCN(c4ccc(OCC5COC(Cn6cncn6)(c6ccc(Cl)cc6Cl)O5)cc4)CC3)cc2)c1=O` (stereo not drawn) has an IC50 of 0.372 µM (MB002; cell growth or viability; 7 days).
`Cc1cc([C@@H](C)Nc2ccccc2C(=O)O)c2nc(N3CCC(F)(F)CC3)c(C#N)c(=O)n2c1` has a remaining binding of 100% (ACVR1B (Homo sapiens, UniProt P36896); binding, competition with immobilised ligand; 10 µM).
With `NCc1ccc(-c2nn(Cc3ccccn3)c3cccnc23)o1` the IC50 was 3.09 µM (RBE; cell growth or viability, ATP luminescence).
`COC(=O)CN=c1scc(-c2ccccc2)n1-c1ccccc1OC` has an IC50 of 13.4 µM (Panc 02.03; cell growth or viability, MTT; 72 h).
For `COc1cc2c3c(n(CCCn4ccnc4)c(=O)c2cc1OC)-c1nc2c(cc1C3=O)OCO2`, the IC50 was over 2 µM (Kasumi 1; cell growth or viability, MTS; 72 h).
The remaining binding of `CCCCC(=O)Nc1ccc(-c2ccc3ncn(CCC)c(=O)c3c2)cn1` is reported as 100% (Non-receptor tyrosine-protein kinase TYK2, JH2 (TYK2, Homo sapiens, UniProt P29597); binding, competition with immobilised ligand; 0.5 µM).
For `COc1cc2nccc(Oc3ccc(NC(=O)C4(C(=O)Nc5ccc(F)cc5)CC4)cc3)c2cc1OC`, the IC50 was over 10 µM (HD-MB03; cell growth or viability; 7 days).
`O=C(CCCC[C@H]1SC[C@H]2NC(=O)N[C@H]21)NCCOCCOCCOc1cccc(Cn2nc(-c3ccc(CO)o3)c3ccccc32)c1` has an IC50 of 4.47 µM (RBE; cell growth or viability, ATP luminescence).
`COc1ccc2c(=O)c(C3CCC(c4ccc(Cl)cc4)CC3)c(C)[nH]c2c1` (stereo not drawn) gave an IC50 of over 10 µM (HEK293; cell growth or viability).
`CN(Cc1ccc(C2(C(F)(F)F)CC2)cc1)Cc1cccc2ccccc12` gave an inhibition zone of 0 mm (Trichophyton rubrum; microbial growth, disc diffusion; ATCC28188; 0.00025 µg/mL, 6 days).
`Cc1cc(NC2CCCC2)nc(Nc2ccccc2)n1` gave an IC50 of over 10 µM (HEK293; cell growth or viability).
`COc1cc(-c2cncc3c2CN(C)Cc2cc(N4CCNCC4)ccc2-3)cc(OC)c1OC` gave a remaining activity of 61% (MINK1 (Homo sapiens, UniProt Q8N4C8); enzyme activity, inhibitor; 1 µM).
With `COc1cc(Nc2nccc(-c3cnn4nc(OC)ccc34)n2)cc(C(F)(F)F)c1` the IC50 was 1.3 µM (BT-20; cell growth or viability, ATP luminescence).
`Cc1csc(-c2nnc(Nc3ccc(Oc4ncccc4-c4ccnc(N)n4)cc3)c3ccccc23)c1` has an IC50 of 0.0012 µM (MB002; cell growth or viability; 7 days).
With `CNc1ncc2c(/C=C/C(=O)N3CCC(OC)CC3)nn(Cc3cccc(C(F)(F)F)c3)c2n1` the remaining activity was 84% (MAP3K5 (Homo sapiens, UniProt Q99683); enzyme activity, inhibitor, radiometric; 1 µM).
The IC50 of `CCC(C)(C)C1CCc2[nH]c3ccccc3c(=O)c2C1` (stereo not drawn) is reported as over 10 µM (HEK293; cell growth or viability).
The IC50 of `C=C(F)C(=O)N1CCN(c2nc(OC[C@@H]3CCCN3C)nc3c2CCN(c2cccc4cccc(Cl)c24)C3)C[C@@H]1CC#N` is reported as 0.0488 µM (Calu-1; cell growth or viability, ATP luminescence).
With `C=CC(=O)N1CCC(COCC(=O)N2CCN(c3nc(-c4cnc(N)nc4C(F)F)nc(N4CCOC[C@@H]4C)n3)CC2)CC1` the remaining binding was 98% (CAMKK1 (Homo sapiens, UniProt Q8N5S9); binding, competition with immobilised ligand; 1 µM).
`Cc1cccc(-c2nn3c(c2-c2ccnc4ccc(C(N)=O)cc24)CCC3)n1` gave an IC50 of over 10 µM (HD-MB03; cell growth or viability; 7 days).
For `Cc1cccc(N(O)N=Nc2ccc(S(=O)(=O)Nc3cc(C)on3)cc2)c1`, the inhibition was 72.8% (ABTS scavenging; 180 µg/mL).

A few entries again:
For `COc1cc2nccc(Oc3ccc(NC(=O)C4(C(=O)Nc5ccc(F)cc5)CC4)cc3)c2cc1OC`, the IC50 was over 10 µM (HD-MB03; cell growth or viability; 7 days).
`CCC(C)n1ncn(-c2ccc(N3CCN(c4ccc(OCC5COC(Cn6cncn6)(c6ccc(Cl)cc6Cl)O5)cc4)CC3)cc2)c1=O` (stereo not drawn) has an IC50 of 0.372 µM (MB002; cell growth or viability; 7 days).
